Experimental data of several laboratories.
Parts stem from different laboratories: compare values within a part only.

Sample 1 — technique: RNA Bind-n-Seq; molecule type: RNA; sample: in vitro; concentration: 365 nM; relative to: no-protein control; reading: higher = stronger binding
Target: RNA binding protein fox-1 homolog 2, RRM domain, GST-SBP tag (RBFOX2, Homo sapiens, UniProt O43251-10, residues 100-194)
Notes: natural RNA segment, single round, ends assumed
Constant ends, left off below: GGGAGUUCUACAGUCCGACGAUC … UGGAAUUCUCGGGUGCCAA
Residues (chain): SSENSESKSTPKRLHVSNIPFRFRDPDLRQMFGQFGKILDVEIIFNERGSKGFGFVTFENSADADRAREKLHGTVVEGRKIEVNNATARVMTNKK
| Sequence | RBNS enrichment (R) |
| --- | --- |
| CUCCUAAUCUAUGUCAUAGAAUUUUGCAUGCUGUAUGAUUGGCUUUGUCUUCUAUCUCCCACCAAAUACCACUUCCUGAGAUUCAUCUCUGAGUUUUGCAAGCGCUCAGG | 45.1 |
| UUUGUGCUAUUUUAUCACAGGCUUACACUACAAUUGUUAAUAAAUACUUCAUUUGGAGAUGUAUGGUGUAAAACACACAAACACACACAAAAAAGCACAAGCCCGCUGCA | 1.79 |
| AGUGCUGAUUCUAUCACUUAUCUACCAGCUCUGUGACCUUGAACAAGCCGCUUAACCUUGCUAAGCCUCUGUUUUCUCAUAUGUCAAAUGGUGAUAAUAAUGCCUACCUC | 0.279 |
| UUAUUCUGAAUUUUCUACCUUAGUUAUCAUUAAUGUAGUUCCUCAUUGAACAUGUGAUAAUCUAAUACCUGUGAAAACUGACUAAUCAGCUGCCAAUAAUAUCUAAUAUU | 0.466 |
| UGGAGUGUAUCUGCUUAAGGGGUGAAGUUUGUUUUUUCUUGUCUCUGAAAACUAAGCCCUCAAUGAACGACUUAAUUAACUCACUGCAUUAGUCUCCAUAAUUGGUCUCG | 0.604 |
| AUGCCACCCCCCAGCGGGUACCAGAGGAAAGCUGGCAGCAGGCGCCUCCUCCCCCAACGCAUCCCAGCCAGUGCCAUGUCCUCUGCAGGUGGAGUUACUGGCCUACUCCU | 0.828 |
| CAUUAGAAGGGACUUGGCCUGCCCUUUGGAACUGUGCCCUUGUAGAAGAAGUAAAGGACUGAAUCAUGCAGAGUGGCUUUUGCCGGACUCCGGGACACAAGAGUGGCAUG | 1.38 |
| GUUGUAUCACUGUUAAACUUCUGAAGACAUAACCAGUUGAGUCUUAUUUCAAGAUAUGUUCUCAAGCCAAUUGUGUGCUUCUCUUGUUUCUGUGAUUGCUUUCUAGCCAA | 0.218 |
| UCCCGAUGACUUUUUAUCUGUAGAAGGUUGACUGUCACUGUCCUCCUUUGUAGCUUCAUAUGUGGCUUUUAAAAUGUCAUUUCUCUAGGGUAUCUUUUUAUAUCACAGCC | 0.44 |
| UCAGAACUGCCACUGGCUAAAGAUGGUGGGGCCACAUGCUGACCCAGCCCCACAUCCACAUUCUGUUAGAAUGUAGCUCAGGGAGCUUCGUGGACGGCCUUGCUUGCUGU | 0.702 |
| GUGAAGAGCUGGAAACUUAAAAAAUUAUCAAAAGGAAUUUUGGUAUCAUCUUCAGAGAAAAAAUAAAGCAAGAAAUACUAACAUCAAAAGGACAGGUAUGAUGAUGCGAU | 0.834 |
| GAAGCAAAAGUAAUUUUUCUUGACAUUUGAGGACCUUCCUGAGGCUUCUAAAGUGUUCAUCCUGAUCACCUGAAGGGUGUGAUUUUAGCAGAGCUGAGAGUGGCUGGUGG | 0.304 |

Sample 2 — technique: RNA Bind-n-Seq; molecule type: RNA; sample: in vitro; concentration: 200 nM; notes: whole 134-nt RNA, ends assumed; with: 150 mM KCl; relative to: input library; reading: higher = stronger binding
Target: Ras GTPase-activating protein-binding protein 1, full length (G3BP1, Homo sapiens, UniProt Q13283)
Sequence of UniProt Q13283 (whole entry, looked up): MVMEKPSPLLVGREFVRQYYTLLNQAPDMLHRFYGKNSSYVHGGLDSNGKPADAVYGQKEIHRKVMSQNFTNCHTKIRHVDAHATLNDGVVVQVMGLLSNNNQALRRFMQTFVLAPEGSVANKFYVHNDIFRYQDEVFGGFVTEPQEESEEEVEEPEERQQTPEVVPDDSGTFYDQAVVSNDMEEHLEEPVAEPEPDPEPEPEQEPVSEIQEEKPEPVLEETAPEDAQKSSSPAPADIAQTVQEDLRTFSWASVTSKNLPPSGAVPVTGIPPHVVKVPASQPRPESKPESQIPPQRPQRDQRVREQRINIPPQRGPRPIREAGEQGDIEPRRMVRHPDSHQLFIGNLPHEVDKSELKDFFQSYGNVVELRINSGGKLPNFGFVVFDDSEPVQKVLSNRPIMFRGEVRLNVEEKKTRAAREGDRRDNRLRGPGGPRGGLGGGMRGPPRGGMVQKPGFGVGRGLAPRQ
Constant ends, left off below: GGGAGUUCUACAGUCCGACGAUC … UGGAAUUCUCGGGUGUCAAGG
| Sequence | log2 enrichment |
| --- | --- |
| GGAGUGCCGUGAGCAGGCCGCGGGAACGUCGCCGUCACCUUGUCUCGGGGCCUCGGCGCUGCUUCCCGCCAAAACACGUUUACCGCGCGC | -1.8 |
| UAGCCCUGGUGGCAUGCGGGGAGGAAGAGGUGGCCUCAUGGAUCGUGGUGGUCCCGGUGGAAUGUUCAGAGGUGGCCGUGGUGGAGACAG | 0.249 |
| AAAGGAAGUAAAAACAAAUGGAAAUGCUUCGGAUAGUGGCAGGGGUGGGGGUUGCUAAGGAAAGGGUGGGAUGGGAGUGGGUAAAGAGUU | 0.976 |
| UCCUGUGCUACACAUCGUAUGUACCGAAUCGGGGCCCCCCGGGCCCCCCGGCCCCCCGGAAAGUAUUAUGUUACGCCGUUCGGAUCUGCA | -0.0656 |
| CAAGUCCUGUGCUACACAUCGUAUGUACCGAAUCGGAAAAAAAGGAGGUUUUUGGAAAGUAUUAUGUUACGCCGUUCGGAUCUGCACUUC | -1.06 |
| CAAGUCCUGUGCUACACAUCGUAUGUACCGAAUCGGGCCCCGGCCCCGGCCCCGGAAAGUAUUAUGUUACGCCGUUCGGAUCUGCACUUC | -0.943 |
| UUCCUCAAGUCCUGUGCUACACAUCGUAUGUACCGAAUCGGAGGGAGGAGGAAAGUAUUAUGUUACGCCGUUCGGAUCUGCACUUCCAGC | -0.661 |
| UUGUUUAGCAAUCAAGGAGACCGCGAAGGCGUACAUUCCCGGGUGUUGCUUCCAGGAGAAACCCUGAACGGAGAGCUCGUCCUCUUACCA | -0.622 |
| AAGUCCUGUGCUACACAUCGUAUGUACCGAAUCGGGUUUUUUUGGGUGGGUUUGGGAAAGUAUUAUGUUACGCCGUUCGGAUCUGCACUU | 0.234 |
| UGUGAGCUGACUUUUUGGAUCAACUUUACUUUUCCCUUCUUUUUAGGCAAUUGAAGAUGAAGGUGGUAAUCCUGACGAAAUUGAAAUUAC | -0.109 |
| CUGUGCUACACAUCGUAUGUACCGAAUCGGGGAAAAAAAGGGGUUUGGGGUUUUUUUGGGGAAAGUAUUAUGUUACGCCGUUCGGAUCUG | -0.0572 |
| UAACUUUAGAGGAUGAUCUGAUGGAUAUGGCAGUGGACGUGGAUUUGGGGAUGGCUAUAAUGGGUAUGGAGGAGGACCUGGAGGUGGCAA | 0.353 |
| UGGGAGGUGGAUUUUGUUUAUUUUUUUAGCUCAUUUCCAGGGGUGGGAAUUUUUUCUUAAUAUGUGUCAUGAAUAAAGUUGUUUUUGAAA | 0.18 |
| GUCCUGUGCUACACAUCGUAUGUACCGAAUCGGGAAAGGGAAAAAAAGGGAAAAAGGGAAAGUAUUAUGUUACGCCGUUCGGAUCUGCAC | -0.417 |

Sample 3 — technique: aptamer microarray, sandwich; molecule type: DNA with 2'F-ANA; sample: in vitro; concentration: 200 nM; with: Cy3 exosite-II aptamer, 400 nM; reading: higher = stronger binding; sequence: GGTTGGTGTGGTTGG
Target: Prothrombin, mature alpha-thrombin (F2, Homo sapiens, UniProt P00734)
Notes: whole 15-mer aptamer, many near background
| Modification | mean fluorescence intensity [a.u.] |
| --- | --- |
| 2'F-ANA at 6 9 10 11 12 13 14 | 95.2 |
| 2'F-ANA at 1 7 8 10 11 12 13 | 64.4 |
| 2'F-ANA at 1 2 4 7 8 11 12 13 14 | 61.7 |
| 2'F-ANA at 1 2 4 5 6 7 9 11 12 13 | 65.5 |
| 2'F-ANA at 1 2 4 5 8 9 11 14 15 | 48 |
| 2'F-ANA at 2 3 7 10 13 14 | 314 |
| 2'F-ANA at 1 3 4 7 | 234 |
| 2'F-ANA at 2 4 6 10 11 12 15 | 98.6 |
| 2'F-ANA at 2 3 4 5 6 7 8 9 12 15 | 178 |
| 2'F-ANA at 1 2 4 8 9 10 11 12 15 | 58.2 |
| 2'F-ANA at 4 6 7 8 9 13 14 | 180 |
| 2'F-ANA at 2 6 8 9 10 13 14 15 | 80.7 |
| 2'F-ANA at 1 2 5 8 9 11 14 15 | 48 |
| 2'F-ANA at 3 5 6 7 12 13 14 15 | 56.5 |
| 2'F-ANA at 1 6 7 8 14 15 | 63.2 |
| 2'F-ANA at 2 3 6 8 9 10 11 12 | 337 |
| 2'F-ANA at 3 6 7 11 14 15 | 485 |
| 2'F-ANA at 1 3 4 6 7 9 10 | 64.8 |
| 2'F-ANA at 1 4 5 6 8 12 13 14 15 | 72.8 |

Sample 4 — technique: protein binding microarray; molecule type: double-stranded DNA, one strand shown; sample: in vitro; concentration: not given; relative to: not given; reading: higher = stronger binding
Target: Histone acetyltransferase KAT6A, both winged helices, GST fusion (KAT6A, Homo sapiens, UniProt Q92794, residues 1-181)
Notes: 8-mer, flanks averaged, mean of 2 arrays, mostly near background
Construct (chain): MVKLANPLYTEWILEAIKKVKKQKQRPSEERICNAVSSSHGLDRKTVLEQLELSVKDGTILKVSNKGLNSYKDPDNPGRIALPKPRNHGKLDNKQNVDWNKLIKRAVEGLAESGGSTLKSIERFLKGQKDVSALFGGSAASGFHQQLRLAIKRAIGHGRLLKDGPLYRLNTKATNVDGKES
| Sequence | E-score |
| --- | --- |
| GGCCGGAC | 0.0679 |
| ACATGACA | -0.123 |
| CTCCTTCC | -0.0833 |
| AAAGTCCG | 0.211 |
| GGCAAAAA | 0.0864 |
| ATGATTTC | -0.0301 |
| CCGTATTA | 0.212 |
| GTTTGTAA | -0.0819 |
| ACCATCAA | -0.137 |
| GCGCCGCC | 0.371 |
| CGACCGCA | 0.234 |
| CACGTCTC | 0.0736 |
| CCATCCGA | -0.16 |
| CACTAGAG | -0.0946 |
| TATAGATA | 0.0118 |
| AGTACTAG | -0.0315 |
| CTGTGGTC | -0.0497 |
| CCTAAGAA | -0.106 |
| CGCGACCA | 0.286 |
| ACCAACTC | -0.22 |
| AACCGGCA | 0.212 |

Sample 5 — technique: competition protein-binding microarray; molecule type: double-stranded DNA, one strand shown; sample: in vitro; concentration: 2 µM; with: Cbf1 competitor, 0.05 µM; reading: higher = stronger binding; constant ends, left off below: … GTCTTGATTCGCTTGACGCTGCTG
Target: Phosphate system positive regulatory protein PHO4, full length, GST-tagged (PHO4, Saccharomyces cerevisiae, UniProt P07270, residues 1-312)
Notes: whole 60-bp probe, lowest competitor level
Construct (chain): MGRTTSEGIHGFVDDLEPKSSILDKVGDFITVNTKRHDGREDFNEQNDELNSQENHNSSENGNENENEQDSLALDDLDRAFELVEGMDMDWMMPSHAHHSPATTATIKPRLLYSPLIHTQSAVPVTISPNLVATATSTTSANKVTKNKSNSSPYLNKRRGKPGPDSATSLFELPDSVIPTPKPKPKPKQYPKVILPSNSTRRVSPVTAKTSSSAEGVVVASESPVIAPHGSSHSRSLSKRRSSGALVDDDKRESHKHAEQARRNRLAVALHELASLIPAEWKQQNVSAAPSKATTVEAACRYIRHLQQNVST
| Sequence | fluorescence intensity [a.u.] |
| --- | --- |
| CTAAAATCAGCATCGCACATGGACGGTTAGCTCGCG | 10200 |
| GTCTTGTCTCATTGATGAGTGGGTGTCCCCACTTCA | 4690 |
| ATAAAGTGCGTAATGTGCGTGCTAAAAAAGCTCACT | 8840 |
| CTTCTGTAAATTTGTCATGTGGGTGGACGCGCCCCG | 8670 |
| CCAAGTGGATATTTTCACGTTTGCGCGCTGCGTCTT | 5380 |
| AAGTGCCGGAGGCTCAGCGTGACGGTGCAGATAGGT | 6460 |
| AACAACACCAGCACCTTCGTGACGGCCGATTAATGG | 5430 |
| TAACATAGAATTCTTCACGTGGTCGAAATATGTATA | 16300 |
| GTTTAGAATCCCCATCACGTACGAGTTGAAGAATTC | 4420 |
| ACCTGAAATGATTGACCTGTACAGAGGGTTACCTAT | 3630 |
| GTCTTGTCTCATTACCACGTGTTTTTCCCCACTTCA | 16400 |
| TAATGCGCTTGCATGTATGTGCGTACATGTATGTGT | 7820 |
| GGGTCCACTCTTATACGCGTGGGTATTTTTTCCTTT | 10700 |
| TAGAGCTTGCCTCGTCAGGTGATGACAAGTTGTAAA | 3770 |
| CATACCCAACCTTGCTCAGTGGGTGAAGATATTTGT | 3980 |
| CGTCCTAGTGATTGCCACGTGTTTTCCATGAGGAAG | 18900 |
| TATAATATCCGTTCGCATGTGAGTTGGCGACCTTTG | 6900 |
| ATACTCACAATAATACATGTGTCTTAGAACCTCAGT | 8750 |
| AAATTACTAAGTTGGCAAGTGGGTGACGCCGTATGA | 4090 |
| CGTCCTAGTGATTTTCACGTGCTATCCATGAGGAAG | 15600 |
| CATACCCAACCTTTTCACGTGGATTAAGATATTTGT | 14700 |
| TAATGTCAATATTCACACGTCGTTATAAGCAGCTAA | 4960 |
| GTCTTGTCTCATTGTCACGTCACTTTCCCCACTTCA | 5450 |
| TCAACAATATTGTCCCACGCAGCTATCCTGTCTGTG | 9010 |
| CATACCCAACCTTGGCGGGTGGGTGAAGATATTTGT | 4790 |
